Assay results from different studies.
A part holds a random share of what one study measured. Positions count from the first letter of the parent shown.

Sample 1
Target: Hepatocyte nuclear factor 3-alpha (Foxa1, Mus musculus, UniProt P35582, residues 1-468, full length assumed)
Technique: EMSA with sequencing
Form: double-stranded DNA, one strand shown
Sample: in vitro
Concentration: 10 and 20 nM
Setting: whole designed probe, mean of two concentrations, ends assumed
Baseline: negative control set to 0
Reading: higher = stronger binding
Measurement: normalised bound fraction
All sequences stand within: GTGAGCGGTGCCCATTGATGGGGAAC … TTTCACTGGGATCGTGGGGAC
Target sequence (chain): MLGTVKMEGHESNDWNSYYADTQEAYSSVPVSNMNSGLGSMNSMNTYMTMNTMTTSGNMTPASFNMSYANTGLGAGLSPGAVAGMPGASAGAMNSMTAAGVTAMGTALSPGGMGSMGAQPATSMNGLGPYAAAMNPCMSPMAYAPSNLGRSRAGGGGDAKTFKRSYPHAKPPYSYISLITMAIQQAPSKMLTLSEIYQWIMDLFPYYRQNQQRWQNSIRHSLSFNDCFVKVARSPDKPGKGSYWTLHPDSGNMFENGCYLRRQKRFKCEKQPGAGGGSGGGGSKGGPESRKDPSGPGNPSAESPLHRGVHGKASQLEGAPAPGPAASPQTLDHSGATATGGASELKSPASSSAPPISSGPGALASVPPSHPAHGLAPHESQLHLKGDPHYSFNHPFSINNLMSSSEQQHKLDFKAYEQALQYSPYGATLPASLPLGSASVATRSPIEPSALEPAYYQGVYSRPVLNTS
TAGTTCTTTCTTTTGTTTCCACCTTCTTGGATTCATCAAGTATTTTTTAGTATTCCATTTTATCTCATCTGTTATCTTTTGCTGTATTATTTGAAATTACTTTTGGGATTACAATATGCATCCTTAATTTAGCATGGTCTACTTGAAATTAATAACATACTACTTTGTTGTATAATGTAAGAATTTTACTAAT: 0.0464 ratio
TGATGATACGTTATAGCATTTCTCTGCTCTGTAAGAGAGGCACCAGGGTCGTGTGCTGGGTCTGGGGCACATCCGGTTTTGTCCATTCGCTGCTGTTGACTCTGGTGTCGGCCGCTGGTGAGCTGGCTGTAGCTGGTCACCTCTGGGTGGTTTCTGGGGCGGTCGCAGGCTGACTAACACACCAAAGGTCAGC: -0.013 ratio
TAAAAGTGTCAATTCTCAGGCATTTATAATGTATAGAATAATATATCAGGGAGAGGTAATTTTGGTGAATACATCAGTAAGTTTAGATTCCGTGTTTACTTTGTAGATTGCTCGTGTTTAAAGATGTATAGTTGTATAAAGTAATAGACATTTTCATTTGAATTTTAGAATATAATTGCATTACTACTTATTA: 0.416 ratio
ATCTTCCCCCTCTTCCTTGCCCCACCAGCTCACCTTCCCGGGTTATTTGCACAAAGGAAAATAAATAAAGCCGGCATTCGTTAACGCAGTTCTGGCGCAAACTGCTGTTTGCTCTGCATGAATCATGGTCCTTACGCGACGCCAGGCTCCGGGAGAGCAAAGCACCGTGTCAGGCGCATGATCCGGGGTGGCC: 0.378 ratio
ATCTTCCCCCTCTTCCTTGCCCCACCAGCTCACCTTCCCGGGTTATTTGCACAAAGGAAAATAAATAAAGCCGGCATTCGTTAACCCTCTTCACGCGCATACTGCTGTTTGCTCTGCATCTAACATGGTCCTTACGCGACGCCAGGCTCCGGGAGAGCAAAGCACCGTGTCAGGCGCATGATCCGGGGTGGCC: 0.38 ratio
ATTAGGCAGATATAGGGACCTGAGACTTAGGTGGTTATTTTCTTCATCTCATCGGTGGGGACCTGGCTTCTTTGACTGCACCTTGATGTGCTTGTTTACACTGTTAGTATTTCCCCTTGTGGATACTGTAGGCTTATTTTACAGCCAGAGTGAGTAGGGGCAGGCTATCTGGCCAGTCGCCACCTCAGATTAT: 0.33 ratio
ACGGTGTTTGCAGAGTGACTGTTCCCCTGGGGGACCCTAGGCTTGTCCTGGCCTTACCTTTGTCCCATCAGTTGCTGCTCTGGCTGGGGAAGTTGTTTACATTGGCTGCTGTGTGCTGCTGCTAGGAATTTTGAGGAGTGTGCACTTTTTTTTTTTTTTTTTTGCTGTTGTTGAGGCGGAGTCTCGCTCTGTC: 0.433 ratio
TTATTTTAATGCATGCATTAATTCTCCTTTTCATCTCACTGCCTGCCAGAAAATTGGTTGTACAAGCGTTCAAGGCATTTTCCCTGGACCAGAAAATTACACAGGAGTACTGAGATGACATTATGTGGCTTCGGATTTCAGCGGGCAGGCTGATGCCTCTTGGGACATGTAAGTGCAGAAGGCAAGGCCTGCC: -0.0471 ratio

Sample 2
Target: ATF2, bZIP domain (human)
Technique: DHFR protein complementation
Sample: yeast
Setting: single substitutions, most at no-binding floor
Baseline: wild-type JUN-FOS pair
Reading: higher = stronger binding
Measurement: binding fitness
Starting sequence: JUN, bZIP domain (human); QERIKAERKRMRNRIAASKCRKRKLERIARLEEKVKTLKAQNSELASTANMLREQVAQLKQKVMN; partner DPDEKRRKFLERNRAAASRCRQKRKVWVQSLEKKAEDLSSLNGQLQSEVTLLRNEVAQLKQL
E54Y: -1.31 natural log
Q41I: -1.28 natural log
N42R: -1.43 natural log
A29D: -1.42 natural log
A57N: -1.45 natural log
E54P: -1.54 natural log
I28C: -1.26 natural log
L31D: -1.38 natural log

Sample 3
Target: Histone acetyltransferase KAT6A, both winged helices, GST fusion (KAT6A, Homo sapiens, UniProt Q92794, residues 1-181)
Technique: protein binding microarray
Form: double-stranded DNA, one strand shown
Sample: in vitro
Concentration: not given
Setting: 8-mer, flanks averaged, mean of 2 arrays, mostly near background
Baseline: not given
Reading: higher = stronger binding
Measurement: E-score
Construct (chain): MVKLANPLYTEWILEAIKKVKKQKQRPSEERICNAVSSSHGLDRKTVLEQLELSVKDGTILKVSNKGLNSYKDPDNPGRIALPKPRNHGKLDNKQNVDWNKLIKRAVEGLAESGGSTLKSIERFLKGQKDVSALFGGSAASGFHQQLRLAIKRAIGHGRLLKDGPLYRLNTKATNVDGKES
CACGGACC: 0.266
CCTGGGGA: -0.324
GGATCAAC: 0.057
AAACTCCT: -0.152
ACTAGCAT: -0.127
CGCATGCC: 0.217
ACAGTTCA: -0.14
ATTACTCC: -0.143

Other studies, line by line
Starting sequence: viral docking peptide; KGVKRKLFAEDSS
F8L  normalised enrichment score (CCNE1, cyclin fold, Cln2 fusion (human); yeast growth competition, sequencing; yeast; strong parent motif; baseline: not given, higher = stronger binding): 0.741

For quick reference, copied from above (sample 3):
AAACTCCT: -0.152
ACTAGCAT: -0.127
CGCATGCC: 0.217
